Measured values from different studies.
Lines come from different studies, so protocols differ.

With CCOC(=O)c1[nH]c(C)c(/C=C/c2c(I)c(C)c3n2[B-](F)(F)[N+]2=C(C)C(I)=C(C)C2=C3c2cc(OC)cc(OC)c2)c1C the absorption maximum was 611 nm (THF).
The absorption maximum of CCn1cc(/C=C/c2sc3ccccc3[n+]2CC)c2ccccc21 is reported as 475 nm (MeOH; 10 µM).
Cc1ccc(-c2ccc(-c3cc4sccc4o3)cn2)nc1 gave an absorption maximum of 343 nm (acetonitrile; zinc-free ligand).
The absorption maximum of CCn1cc(/C=C/c2ccc3ccccc3[n+]2CC)c2ccccc21 is reported as 466 nm (PBS; 10 µM).
CCCCN1C(=O)c2cccc3c(NCCCCCCN4CCOCC4)ccc(c23)C1=O gave an absorption maximum of 453 nm (water; pH 6.0).
For COc1cc(OC)cc(C2=C3C(C)=C(I)C(/C=C/c4cccs4)=[N+]3[B-](F)(F)n3c(/C=C/c4cccs4)c(I)c(C)c32)c1, the absorption maximum was 670 nm (dichloromethane).
Under “absorption cut-off wavelength”, O=C([O-])CN1CCN(CC(=O)[O-])CCN(CC(=O)c2ccc(-c3ccc(OCC(=O)O)cc3)cc2)CCN(CC(=O)[O-])CC1.[Eu+3] is recorded as 403 nm (PBS; pH 7.4).
With COCCOCCOCCOc1ccc(/C=C/c2c(I)c(C)c3n2[B-](F)(F)[N+]2=C(C)C(I)=C(C)C2=C3c2cc(OC)cc(OC)c2)cc1 the absorption maximum was 597 nm (dichloromethane).
For COc1ccc(/C=C/c2ccc(-c3ccc(C)cn3)nc2)cc1, the absorption maximum was 368 nm (aqueous HEPES buffer; pH 7.4, zinc(II) complex).

Repeated from above:
CCCCN1C(=O)c2cccc3c(NCCCCCCN4CCOCC4)ccc(c23)C1=O gave an absorption maximum of 453 nm (water; pH 6.0).
